Earlier results that unrelated publications cite.
Each numbered part shows a few of the values that one paper quotes.

Series 1 — organism: Cryptosporidium parvum; technique: high-throughput screen; tested at: concentration not given
SMILES | activity
CN(C)[C@@H]1C(O)=C(C(N)=O)C(=O)[C@@]2(O)C(O)=C3C(=O)c4c(O)cccc4[C@@](C)(O)[C@H]3C[C@@H]12 | inactive
CCOc1ccc2ccccc2c1C(=O)N[C@@H]1C(=O)N2[C@@H]1SC(C)(C)[C@@H]2C(=O)O | inactive
OC(Cn1cncn1)(Cn1cncn1)c1ccc(F)cc1F | inactive
O=C(O)c1cc(-c2ccc(F)cc2F)ccc1O | inactive
C[N+]1(C)CCCC(OC(=O)C(O)(c2ccccc2)c2ccccc2)C1 (stereo not drawn) | inactive
O=C1NC(=O)C(c2ccccc2)(c2ccccc2)N1 | inactive
CCn1cc(C(=O)O)c(=O)c2cc(F)c(N3CCNCC3)cc21 | inactive
OCCN(CCO)c1nc(N2CCCCC2)c2nc(N(CCO)CCO)nc(N3CCCCC3)c2n1 | inactive
NS(=O)(=O)c1cc2c(cc1Cl)NCNS2(=O)=O | inactive

Other studies, line by line
SMILES | tested on | assay | system | conditions | scale | quantity | result
O=C(NCc1ncc(C(F)(F)F)cc1Cl)c1ccc2c(c1)C1(CCS(=O)(=O)CC1)[C@@H](C1CC1)N2S(=O)(=O)c1ccc(F)cc1 | MAPK3 | enzyme activity, Eurofins-Panlabs panel |  |  |  | IC50 | 4870 nM
Cn1c(Cn2ccc(C(F)(F)F)c(Oc3cc(Cl)cc(C#N)c3)c2=O)n[nH]c1=O |  |  | human | up to 48 weeks, trial | baseline: subjects | back pain incidence | 5.5%
CO[C@H]1C[C@@H]2CC[C@@H](C)[C@@](O)(O2)C(=O)C(=O)N2CCCC[C@H]2C(=O)O[C@H]([C@H](C)C[C@@H]2CC[C@@H](OCCO)[C@H](OC)C2)CC(=O)[C@H](C)/C=C(\C)[C@@H](O)[C@@H](OC)C(=O)[C@H](C)C[C@H](C)/C=C/C=C/C=C/1C |  |  | plasma | population PK two-compartment |  | intercompartmental clearance (Q) | 46.2 L/h
O[C@]1(C(F)(F)F)CCCC[C@H]1Nc1ccc(F)cc1 | TRPA1 | biochemical |  |  |  | IC50 | 16 nM
C#C[C@]1(CO)O[C@@H](n2cnc3c(N)nc(F)nc32)C[C@@H]1O | HIV-1 |  | treatment-naive HIV-positive humans | 1 to 30 mg, average over doses |  | viral load reduction | > 1 log
O=C(Cc1ccccc1)Nc1nnc(N2C[C@H]3C[C@@H]2CN3c2cccnn2)s1 | GLS | cell-based |  |  |  | IC50 | 11 nM
C[C@@H]1C[C@H]2[C@@H]3CCC4=CC(=O)C=C[C@]4(C)[C@@]3(F)[C@@H](O)C[C@]2(C)[C@@]1(O)C(=O)CO |  | IAM chromatography |  |  |  | log kW IAM | 1.71
CCNC(=O)c1cc2c(N3CCOC[C@H]3C)ccnc2n1C | NUDT1 | biochemical |  |  |  | IC50 | > 20000 nM
COc1ccc([C@@H]2Sc3ccccc3N(CCN(C)C)C(=O)[C@@H]2OC(C)=O)cc1 |  | IAM chromatography |  |  |  | log kW IAM | 2.83
